Results from different studies.
Parts stem from different laboratories: compare values within a part only. Several values in a cell are separate wells, animals, samples, runs or records.
UniProt P42336, sequence (whole entry, unmodified, looked up): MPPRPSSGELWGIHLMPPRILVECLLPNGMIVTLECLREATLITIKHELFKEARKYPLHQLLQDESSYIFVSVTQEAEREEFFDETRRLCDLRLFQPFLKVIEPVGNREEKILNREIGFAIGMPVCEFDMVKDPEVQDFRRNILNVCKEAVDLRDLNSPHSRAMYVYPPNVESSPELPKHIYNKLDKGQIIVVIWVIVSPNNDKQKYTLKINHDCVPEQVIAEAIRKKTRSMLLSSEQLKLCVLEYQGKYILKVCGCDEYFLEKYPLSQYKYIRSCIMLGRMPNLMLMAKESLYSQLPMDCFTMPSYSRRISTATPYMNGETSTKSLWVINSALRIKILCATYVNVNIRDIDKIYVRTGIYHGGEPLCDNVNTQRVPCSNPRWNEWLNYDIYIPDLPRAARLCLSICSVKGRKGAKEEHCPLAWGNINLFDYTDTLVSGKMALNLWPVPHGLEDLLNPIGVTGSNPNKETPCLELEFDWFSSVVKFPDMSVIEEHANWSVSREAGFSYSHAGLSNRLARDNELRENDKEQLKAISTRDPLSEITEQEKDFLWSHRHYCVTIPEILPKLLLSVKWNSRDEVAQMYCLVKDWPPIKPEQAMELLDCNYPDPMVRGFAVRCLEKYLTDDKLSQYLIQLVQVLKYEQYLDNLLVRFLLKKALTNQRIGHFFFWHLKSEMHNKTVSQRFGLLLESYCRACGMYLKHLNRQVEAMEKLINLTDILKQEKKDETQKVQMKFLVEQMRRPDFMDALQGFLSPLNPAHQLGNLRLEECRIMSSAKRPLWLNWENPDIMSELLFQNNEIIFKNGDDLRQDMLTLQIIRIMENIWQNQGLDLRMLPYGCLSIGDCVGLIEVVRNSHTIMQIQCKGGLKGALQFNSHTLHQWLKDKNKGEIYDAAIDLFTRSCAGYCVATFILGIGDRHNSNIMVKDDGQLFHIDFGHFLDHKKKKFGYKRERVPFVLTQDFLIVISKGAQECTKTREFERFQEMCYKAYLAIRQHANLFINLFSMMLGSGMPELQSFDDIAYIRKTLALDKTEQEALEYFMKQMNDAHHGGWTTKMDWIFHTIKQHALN
UniProt Q32MK0, sequence (whole entry, looked up): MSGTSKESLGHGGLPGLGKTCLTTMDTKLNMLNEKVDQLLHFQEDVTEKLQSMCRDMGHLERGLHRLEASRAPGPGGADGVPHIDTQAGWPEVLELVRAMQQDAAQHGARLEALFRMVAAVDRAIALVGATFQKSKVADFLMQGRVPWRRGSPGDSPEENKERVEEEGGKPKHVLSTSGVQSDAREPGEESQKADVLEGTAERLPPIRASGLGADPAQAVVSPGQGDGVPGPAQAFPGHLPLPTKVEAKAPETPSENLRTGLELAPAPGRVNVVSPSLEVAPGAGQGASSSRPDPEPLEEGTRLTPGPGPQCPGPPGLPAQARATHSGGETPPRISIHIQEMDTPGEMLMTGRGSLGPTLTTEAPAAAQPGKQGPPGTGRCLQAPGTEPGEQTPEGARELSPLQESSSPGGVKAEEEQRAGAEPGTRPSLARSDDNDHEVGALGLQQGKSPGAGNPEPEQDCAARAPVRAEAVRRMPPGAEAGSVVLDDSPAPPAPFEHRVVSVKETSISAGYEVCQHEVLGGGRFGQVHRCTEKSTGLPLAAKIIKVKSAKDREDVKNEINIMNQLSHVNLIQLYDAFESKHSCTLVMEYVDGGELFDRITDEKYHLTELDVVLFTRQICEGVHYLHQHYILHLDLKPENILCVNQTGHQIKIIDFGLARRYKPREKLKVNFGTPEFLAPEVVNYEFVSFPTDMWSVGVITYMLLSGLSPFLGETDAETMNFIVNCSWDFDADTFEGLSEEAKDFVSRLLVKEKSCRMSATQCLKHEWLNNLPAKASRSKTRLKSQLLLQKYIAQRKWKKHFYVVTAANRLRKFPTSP
UniProt P08069, sequence (whole entry, looked up): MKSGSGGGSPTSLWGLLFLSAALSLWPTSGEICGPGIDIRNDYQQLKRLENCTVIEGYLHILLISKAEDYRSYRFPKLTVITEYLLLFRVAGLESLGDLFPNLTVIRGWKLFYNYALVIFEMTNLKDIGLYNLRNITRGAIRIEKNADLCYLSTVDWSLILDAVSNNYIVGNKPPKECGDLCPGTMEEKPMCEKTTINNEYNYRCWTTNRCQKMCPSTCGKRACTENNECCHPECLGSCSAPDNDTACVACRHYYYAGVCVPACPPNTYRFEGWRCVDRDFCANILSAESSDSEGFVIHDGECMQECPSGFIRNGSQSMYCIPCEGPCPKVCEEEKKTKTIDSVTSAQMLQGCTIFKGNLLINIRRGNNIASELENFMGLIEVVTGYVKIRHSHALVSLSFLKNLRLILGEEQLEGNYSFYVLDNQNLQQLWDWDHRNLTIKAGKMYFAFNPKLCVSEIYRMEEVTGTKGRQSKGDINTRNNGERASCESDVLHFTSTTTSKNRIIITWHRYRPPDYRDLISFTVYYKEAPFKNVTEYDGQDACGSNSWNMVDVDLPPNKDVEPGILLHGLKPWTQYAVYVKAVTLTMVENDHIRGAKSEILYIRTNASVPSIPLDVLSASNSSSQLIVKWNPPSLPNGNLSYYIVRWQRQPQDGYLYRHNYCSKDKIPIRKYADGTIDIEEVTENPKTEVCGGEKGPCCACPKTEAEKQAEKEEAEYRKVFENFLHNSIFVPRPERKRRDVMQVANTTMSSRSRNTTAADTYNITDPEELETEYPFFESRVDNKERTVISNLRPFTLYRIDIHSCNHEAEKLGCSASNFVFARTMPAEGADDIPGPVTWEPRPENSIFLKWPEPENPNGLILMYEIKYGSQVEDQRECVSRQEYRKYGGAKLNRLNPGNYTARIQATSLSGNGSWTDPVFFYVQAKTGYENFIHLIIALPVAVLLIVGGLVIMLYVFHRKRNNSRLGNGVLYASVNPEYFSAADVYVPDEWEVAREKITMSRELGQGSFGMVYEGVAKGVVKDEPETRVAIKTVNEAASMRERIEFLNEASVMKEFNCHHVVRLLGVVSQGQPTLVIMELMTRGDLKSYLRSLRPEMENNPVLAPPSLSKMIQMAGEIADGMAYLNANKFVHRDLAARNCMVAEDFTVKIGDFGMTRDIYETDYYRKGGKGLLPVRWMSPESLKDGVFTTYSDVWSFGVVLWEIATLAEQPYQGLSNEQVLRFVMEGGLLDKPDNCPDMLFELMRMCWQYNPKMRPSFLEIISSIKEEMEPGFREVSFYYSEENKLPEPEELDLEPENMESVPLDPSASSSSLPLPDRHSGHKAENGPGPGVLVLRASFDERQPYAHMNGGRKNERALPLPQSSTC

Study 1
Structure (SMILES): O=C(Nc1ccccc1)Nc1cccc(Oc2ccc3nccn3n2)c1
Tested at: 1 µM
For PIK3CA (Homo sapiens, UniProt P42336, E545A); binding: remaining binding read 100%.
The remaining binding was 100% (PIK3CA (Homo sapiens, UniProt P42336, I800L); binding).
It gave 100% for remaining binding (MAPK3 (Homo sapiens, UniProt P27361); binding).
For MET (Homo sapiens, UniProt P08581); binding: remaining binding read 100%.
IKBKB (Homo sapiens, UniProt O14920); binding, competition with immobilised ligand — remaining binding: 100%.
MYLK3 (Homo sapiens, UniProt Q32MK0); binding, competition with immobilised ligand — remaining binding: 93%.
It gave 100% for remaining binding (MAPK4 (Homo sapiens, UniProt P31152); binding).
The remaining binding was 91% (HIPK4 (Homo sapiens, UniProt Q8NE63); cell-free binding).
The remaining binding was 100% (CLK4 (Homo sapiens, UniProt Q9HAZ1); binding).
For IGF1R (Homo sapiens, UniProt P08069); binding: remaining binding read 100%.
The remaining binding was 100% (MAP3K11 (Homo sapiens, UniProt Q16584); binding).
The remaining binding was 100% (MET (Homo sapiens, UniProt P08581, M1250T); binding).
The remaining binding was 100% (TEC (Homo sapiens, UniProt P42680); binding, competition with immobilised ligand).
Aurora kinase A (AURKA, Homo sapiens, UniProt O14965); binding, competition with immobilised ligand — remaining binding: 100%.
It gave 18% for remaining binding (KIT (Homo sapiens, UniProt P10721, V559D/V654A); binding).
The remaining binding was 76% (STK11 (Homo sapiens, UniProt Q15831); cell-free binding).
The remaining binding was 100% (FYN (Homo sapiens, UniProt P06241); binding, competition with immobilised ligand).

Study 2
Cell line: HCC1569
Technique: in-cell western
Item: CDK1 phospho-Thr14
Tested at: 1000 nM
Under “pCDK1 (Thr14) level”, `Cc1ccc(O)c(C)c1-c1cnc2[nH]c(-c3cnc(N4CCC(CCN5CCN(c6cc7c(cc6F)c(N6CCC(=O)NC6=O)nn7C)CC5)CC4)nc3)cc2c1C#N` is recorded as 149 RLU and 138 RLU.
`Cc1ccc(O)c(C)c1-c1cnc2[nH]c(-c3cnc(N4CCC5(CC4)CC(N4CCN(c6ccc7c(c6F)CN(C6CCC(=O)NC6=O)C7=O)CC4)CO5)nc3)cc2c1C#N` (mixture of isomers): “pCDK1 (Thr14) level” 108 RLU.
For `Cc1ccc(O)c(C)c1-c1cnc2[nH]c(-c3cnc(N4CCC(CN5CCN(c6ccc(NC7CCC(=O)NC7=O)c(F)c6)CC5)CC4)nc3)cc2c1C#N` (racemic), “pCDK1 (Thr14) level” read 106% and 108%.
`Cc1ccc(O)c(C)c1-c1cnc2[nH]c(-c3cnc(N4CCC(CCN5CCN(c6ccc7c(c6)C(=O)N(C6CCC(=O)NC6=O)C7=O)CC5)CC4)nc3)cc2c1C#N` (racemic): “pCDK1 (Thr14) level” 104 RLU and 106 RLU.

Study 3
SMILES: COCC1CC2C(CCC3(C)C(O)CCC23)c2ccc(O)cc21 (stereo not drawn)
Technique: DNA microarray
Baseline: untreated cells
A549; item: GTSE1; concentration not given — “log2 fold change”: -0.958.
For PANC-1; item: ADAMTS8; concentration not given, lower dose arm: “log2 fold change” read 0.
The “log2 fold change” was 1.7 (A549; item: IL28A; concentration not given).
It gave 3.52 for “log2 fold change” (A549; item: IL20RA; 50 µM).
For PANC-1; item: CCL8; concentration not given, higher dose arm: “log2 fold change” read 4.82.
It gave 0 for “log2 fold change” (PANC-1; item: CCL22; concentration not given, lower dose arm).
For A549; item: CDC25B; 50 µM: “log2 fold change” read 0.258.
The “log2 fold change” was -0.419 (PANC-1; item: MCM7; concentration not given, lower dose arm).
The “log2 fold change” was -0.198 (SK-OV-3; item: AURKA; concentration not given, lower dose arm).
For A549; item: GDF15; concentration not given: “log2 fold change” read 2.74.
PANC-1; item: KIF20A; concentration not given, lower dose arm — “log2 fold change”: -0.572 and -0.588 and -0.594 and -0.578 and -0.57.
For PANC-1; item: CCL11; concentration not given, higher dose arm: “log2 fold change” read 0.
PANC-1; item: MCM10; concentration not given — “log2 fold change”: -1.2.

Study 4
Compound: CCN1/C(=C/C=C2\CCCC(/C=C/C3=[N+](CC)c4ccccc4C3(C)C)=C2NCCCCCCCCN2CCC(Nc3nc4ccccc4n3Cc3ccc(F)cc3)CC2)C(C)(C)c2ccccc21
Cell line: U-87 MG
Tested at: concentration not given
Baseline: DMSO
It gave -1.21 for “log2 fold change” (item: GAS6 mRNA).
It gave -1.41 for “log2 fold change” (item: HAS3 mRNA).
For item: TIMP3 mRNA: “log2 fold change” read -1.56.
The “log2 fold change” was -1.2 (item: FSTL1 mRNA).
For item: KLHL21 mRNA: “log2 fold change” read 0.97.
item: PITX1 mRNA — “log2 fold change”: -1.11.
It gave -1.33 for “log2 fold change” (item: FAT2 mRNA).
item: UCN2 mRNA — “log2 fold change”: -1.27.
The “log2 fold change” was -1.13 (item: TMEM158 mRNA).
item: RAPGEFL1 mRNA — “log2 fold change”: -1.23.
For item: PCSK1 mRNA: “log2 fold change” read -1.2.
The “log2 fold change” was -4.41 (item: GASK1B mRNA).

Study 5
Compound: COc1cc(C(=O)OCCCN2CCCN(CCCOC(=O)c3cc(OC)c(OC)c(OCc4ccc([N+](=O)[O-])cc4)c3)CC2)cc(OC)c1OC
Species: mice, male and female, formalin pain
Route: intrathecal
Together with: formalin 5%, 20 µL intraplantar
Direction: higher = more pain
For 100 nmol, 20-25 min after formalin: “licking and flinching time” read 26.3 a.u. and 36.2 a.u. and 17.6 a.u. and 99.5 a.u. and 3.38 a.u. and 112 a.u. and 10.3 a.u. and 4.33 a.u.
For 1 nmol, 25-30 min after formalin: “licking and flinching time” read 16.1 a.u. and 101 a.u. and 158 a.u. and 14.5 a.u. and 61.9 a.u. and 31.6 a.u. and 19.4 a.u. and 78.5 a.u.
It gave 20.9 a.u. and 8.67 a.u. and 4.76 a.u. and 39.1 a.u. and 7.67 a.u. and 14 a.u. and 100 a.u. and 2.2 a.u. for “licking and flinching time” (100 nmol, 30-35 min after formalin).
It gave 0.51 a.u. and 14.8 a.u. and 2.47 a.u. and 7.24 a.u. and 16.4 a.u. and 18.7 a.u. and 1.41 a.u. and 1.29 a.u. for “licking and flinching time” (10 nmol, 40-45 min after formalin).
The “licking and flinching time” was 144 a.u. and 176 a.u. and 153 a.u. and 148 a.u. and 184 a.u. and 192 a.u. and 146 a.u. (100 nmol, 0-5 min after formalin).
It gave 9.49 a.u. and 4.33 a.u. and 7.9 a.u. and 21.4 a.u. and 22.3 a.u. and 6.69 a.u. and 17.1 a.u. and 36.2 a.u. for “licking and flinching time” (100 nmol, 10-15 min after formalin).

Study 6
Structure (SMILES): Cc1ncsc1-c1ccc(C(CO)NC(=O)C2CC(O)CN2C(=O)C(C(C)C)n2cc(-c3ccc(COc4c(-c5c(C)c(F)cc6[nH]ncc56)c(C5CC5)cc5c(N6CC7CC6CN7)nc(OC6CCOCC6)nc45)cc3)nn2)cc1 (stereo not drawn)
Technique: qRT-PCR
Species: mouse, PK-59 xenograft
Sample: tumour
Notes: unit not given
It gave 0.00753 and 0.00388 and 0.00381 for mRNA level (item: SPRY4; intravenous, 10 mg/kg, 144 h; baseline: vehicle, same time point).
item: MYC; intravenous, 10 mg/kg, 72 h; baseline: vehicle, same time point — mRNA level: 0.0395 and 0.0427 and 0.032.
For item: MYC; intravenous, 10 mg/kg, 48 h; baseline: vehicle, same time point: mRNA level read 0.0361 and 0.0336 and 0.0355.
The mRNA level was 0.331 and 0.484 and 0.257 (item: DUSP4; intravenous, 10 mg/kg, 144 h; baseline: vehicle, same time point).
item: DUSP6; 10 mg/kg, 72 h; baseline: vehicle — mRNA level: 0.255 and 0.231.
For item: MYC; intravenous, 30 mg/kg, 72 h; baseline: vehicle, same time point: mRNA level read 0.0384 and 0.0269 and 0.022.
It gave 0.0233 and 0.0219 and 0.0123 for mRNA level (item: ETV4; intravenous, 10 mg/kg, 2 h; baseline: vehicle, same time point).
For item: MYC; intravenous, 30 mg/kg, 24 h; baseline: vehicle, same time point: mRNA level read 0.0194 and 0.0257 and 0.0203.
item: DUSP4; 30 mg/kg, 144 h; baseline: vehicle — mRNA level: 0.489 and 0.427.

Study 7
SMILES: C[C@@H]1CN(c2ccc(-c3cc(C(=O)NCCOCCOCCOCCOCCNC(=O)Cn4cc(-c5[nH]cc(C(=O)N[C@@H](CC(N)=O)c6ccc(F)c(Cl)c6)c5-c5ccc(Cl)cc5F)cn4)ccc3F)cc2NC(=O)c2c[nH]c(=O)cc2C(F)(F)F)C[C@H](C)N1C
Read-out: thermal unfolding
Technique: differential scanning fluorimetry
Tested at: 5.5 µM
Direction: higher = more unfolded
DCAF1: DDB1- and CUL4-associated factor 1 (DCAF1, Homo sapiens, UniProt Q9Y4B6)
UniProt Q9Y4B6, sequence (whole entry, looked up): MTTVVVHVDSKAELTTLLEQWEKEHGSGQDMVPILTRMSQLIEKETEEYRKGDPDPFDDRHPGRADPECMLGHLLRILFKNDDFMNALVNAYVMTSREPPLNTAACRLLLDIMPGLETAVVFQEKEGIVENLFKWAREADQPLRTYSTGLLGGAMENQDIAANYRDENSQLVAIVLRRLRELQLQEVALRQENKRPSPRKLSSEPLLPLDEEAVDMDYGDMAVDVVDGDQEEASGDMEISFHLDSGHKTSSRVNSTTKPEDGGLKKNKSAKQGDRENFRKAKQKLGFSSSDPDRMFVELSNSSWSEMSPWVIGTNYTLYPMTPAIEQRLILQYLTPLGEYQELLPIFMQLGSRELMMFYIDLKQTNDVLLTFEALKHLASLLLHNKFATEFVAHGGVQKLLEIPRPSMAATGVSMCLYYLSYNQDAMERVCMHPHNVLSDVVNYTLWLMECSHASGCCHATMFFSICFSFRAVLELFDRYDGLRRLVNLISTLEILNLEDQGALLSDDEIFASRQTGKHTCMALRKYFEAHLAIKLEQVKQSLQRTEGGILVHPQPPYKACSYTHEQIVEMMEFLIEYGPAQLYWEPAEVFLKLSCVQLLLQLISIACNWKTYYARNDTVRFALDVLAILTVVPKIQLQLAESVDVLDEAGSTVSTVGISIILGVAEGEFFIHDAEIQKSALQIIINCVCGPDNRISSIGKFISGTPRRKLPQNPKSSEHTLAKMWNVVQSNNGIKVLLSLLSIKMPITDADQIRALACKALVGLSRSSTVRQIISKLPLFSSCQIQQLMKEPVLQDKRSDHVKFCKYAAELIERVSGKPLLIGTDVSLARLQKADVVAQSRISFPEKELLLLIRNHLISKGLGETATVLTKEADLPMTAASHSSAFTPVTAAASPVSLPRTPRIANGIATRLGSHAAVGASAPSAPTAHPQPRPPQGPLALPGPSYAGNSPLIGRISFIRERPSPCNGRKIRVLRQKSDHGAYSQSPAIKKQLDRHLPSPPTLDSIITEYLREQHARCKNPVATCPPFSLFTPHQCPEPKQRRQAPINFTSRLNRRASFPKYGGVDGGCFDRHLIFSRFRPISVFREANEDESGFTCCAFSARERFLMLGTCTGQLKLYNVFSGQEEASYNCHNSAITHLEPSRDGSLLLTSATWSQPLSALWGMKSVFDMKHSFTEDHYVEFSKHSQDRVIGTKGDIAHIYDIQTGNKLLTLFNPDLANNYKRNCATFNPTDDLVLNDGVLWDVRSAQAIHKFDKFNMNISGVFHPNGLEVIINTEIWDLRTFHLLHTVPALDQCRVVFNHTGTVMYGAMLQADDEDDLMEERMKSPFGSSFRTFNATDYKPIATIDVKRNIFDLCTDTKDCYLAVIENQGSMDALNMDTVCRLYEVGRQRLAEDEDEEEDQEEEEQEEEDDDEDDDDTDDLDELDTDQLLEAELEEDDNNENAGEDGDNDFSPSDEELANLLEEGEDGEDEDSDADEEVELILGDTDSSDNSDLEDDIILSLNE
WDR5: WD repeat-containing protein 5 (WDR5, Homo sapiens, UniProt P61964)
It gave 45100 a.u. for “SYPRO Orange fluorescence” (DCAF1; 79.01 °C).
The “SYPRO Orange fluorescence” was 45000 a.u. (DCAF1; 61.41 °C).
The “SYPRO Orange fluorescence” was 6740 a.u. (WDR5; 68.81 °C).
The “SYPRO Orange fluorescence” was 16100 a.u. (DCAF1; 52.41 °C).
The “SYPRO Orange fluorescence” was 7730 a.u. (DCAF1; 27 °C).
For WDR5; 77.61 °C: “SYPRO Orange fluorescence” read 16200 a.u.
It gave 7990 a.u. for “SYPRO Orange fluorescence” (DCAF1; 28.6 °C).
For DCAF1; 25.2 °C: “SYPRO Orange fluorescence” read 7440 a.u.
It gave 10500 a.u. for “SYPRO Orange fluorescence” (WDR5; 59.81 °C).
It gave 10700 a.u. for “SYPRO Orange fluorescence” (WDR5; 59.41 °C).
It gave 42000 a.u. for “SYPRO Orange fluorescence” (DCAF1; 60.81 °C).

Single results of other studies
`CCCN1C(=O)C(O)(C(=O)O)Oc2cc(F)ccc21` (stereo not drawn) has a fresh weight of 416 mg and 410 mg and 403 mg (Arabidopsis thaliana; 2-week-old plants, aboveground tissue; foliar spray, 200 µg/mL, 20 days, postemergence).
`Cc1nc(C)c(C=[N+]([O-])C(C)(C)C)nc1C` gave a viability of 66% (MTT; primary midbrain neurons, Sprague-Dawley rat; 100 µM, 2 h pretreatment, together with: 20 µM MPP+ for 24 h; baseline: untreated control).
For `O=C(O)C1(O)Oc2cc(F)ccc2N(Cc2ccccc2)C1=O` (stereo not drawn), the fresh weight was 207 mg and 216 mg and 219 mg (Arabidopsis thaliana; 2-week-old plants, aboveground tissue; foliar spray, 200 µg/mL, 20 days, postemergence).
